Measurements of several laboratories.
Parts stem from different laboratories: compare values within a part only.

Block 1
Cell line: HEK-293T
Observed: pseudovirus infection
Organism: VSV pseudotyped with SARS-CoV-2 spike
Tested at: 10 µM
Time: 16 h
Relative to: vehicle-treated
SMILES | GFP-positive cells [%]
C#C[C@]1(O)CC[C@H]2[C@@H]3CCC4=CC(=O)CC[C@@H]4[C@H]3C(=C)C[C@@]21CC | 95.8
C[C@]12CC[C@H]3[C@@H](CCC4=CC(=O)CC[C@@H]43)[C@@H]1CC[C@@H]2O | 84.2
CC(=O)OCC(=O)[C@@]12OC(C)(C)O[C@@H]1C[C@H]1[C@@H]3C[C@H](F)C4=CC(=O)C=C[C@]4(C)[C@@]3(F)[C@@H](O)C[C@@]12C | 77.6

Block 2
Target: Replicase polyprotein 1ab, main protease (rep, Severe acute respiratory syndrome coronavirus 2, UniProt P0DTD1)
Observed: enzyme activity
Mode: inhibitor
SMILES | IC50 [µM]
CC1(C)C(/C=C/C=C/C=C/C=C2\N(CCCCS(=O)(=O)O)c3ccc4ccccc4c3C2(C)C)=[N+](CCCCS(=O)(=O)[O-])c2ccc3ccccc3c21 | > 20
O=C1/C(=C/c2ccc([N+](=O)[O-])cc2)CS(=O)(=O)C/C1=C\c1ccc([N+](=O)[O-])cc1 | 3.89
COc1ccc(OC)c2c(=S)c3ccccc3[nH]c12 | > 20
O=C1C[C@@H]2OCC=C3CN4CC[C@]56c7ccccc7N1[C@H]5[C@H]2[C@H]3C[C@H]46 | 10.4

Block 3
Target: Replicase polyprotein 1ab, nsp13 helicase (rep, Severe acute respiratory syndrome coronavirus 2, UniProt P0DTD1)
Mode: inhibitor
Tested at: 20 µM
SMILES | inhibition
CN(C)CCN(Cc1ccc(Cl)cc1)c1ccccn1 | 4.22%
COc1ccc(/C=C\c2cc(OC)c(OC)c(OC)c2)cc1OP(=O)(O)O | 1.56%
CCCCCCCCCCCCCCCCCCCCCCCCCCCCO | -5.8%
COc1ccc(C(CN(C)C)C2(O)CCCCC2)cc1 (centres unmarked) | 0.77%
Cc1cnc(NC(=O)c2cc(Oc3cnc(C(=O)N(C)C)nc3)c3cc(C)oc3c2)cn1 | 0.14%
O=C1NC(=O)/C(=C/c2ccc3nccc(-c4ccncc4)c3c2)S1 | 8.28%
Cc1nc(Nc2n[nH]c3c2CN(C(=O)N[C@H](CN(C)C)c2ccccc2)C3(C)C)c2sccc2n1 | -2.14%
CN(C)CCC=C1c2ccccc2CCc2ccccc21 | -4.18%
Cc1cc2nc3c(=O)[nH]c(=O)nc-3n(C[C@H](O)[C@H](O)[C@H](O)CO)c2cc1C | 12.4%
CN(Cc1ccccc1)C(=O)[C@H](Cc1ccc2ccccc2c1)NC(=O)[C@@H]1C[C@@H](O)CN1C(=O)c1cn(C)c2ccccc12 | 6.56%
COc1cc(/C=C/C(=O)N2CCN(CC(=O)N3CCCC3)CC2)cc(OC)c1OC | 2.9%
COC1CCN(c2cccc(-c3cc(NC(C)=O)nc(-n4nc(C)cc4C)n3)n2)CC1 | -0.29%
NC(N)=NCCC[C@H](N)C(=O)NCC(=O)N[C@@H](CC(=O)O)C(=O)N[C@@H](CO)C(=O)O | 9.9%
N#Cc1ccc(-c2ccc(S(=O)(=O)Nc3cccc(N)n3)cc2)cc1 | -1.01%
CNC(=O)c1ccc(Nc2ncc(C(F)(F)F)c(NCc3nccnc3N(C)S(C)(=O)=O)n2)cc1 | 5.5%
Clc1ccc2c(NCCNc3ccnc4cc(Cl)ccc34)ccnc2c1 | 4.17%
NC(=O)C1=CN([C@@H]2O[C@H](COP(=O)(O)OP(=O)(O)OC[C@H]3O[C@@H](n4cnc5c(N)ncnc54)[C@H](OP(=O)(O)O)[C@@H]3O)[C@@H](O)[C@H]2O)C=CC1 | 3.74%
CCC[C@@]1(CCc2ccccc2)CC(O)=C([C@H](CC)c2cccc(NS(=O)(=O)c3ccc(C(F)(F)F)cn3)c2)C(=O)O1 | 7.91%
N=C1CCCN1Cc1[nH]c(=O)[nH]c(=O)c1Cl | 10.1%
COc1cccc(NC(=O)/C=C/c2ccc(Cl)cc2)c1 | 1.48%
CCn1c2ccccc2c2cc(CNC)ccc21 | 9.89%
Cc1cc(Nc2nc(N[C@@H](C)c3ccc(F)cc3)c(C#N)cc2F)n[nH]1 | -2.53%
C[C@]12CCC(=O)C=C1C=C[C@@H]1[C@@H]2CC[C@@]2(C)[C@H]1CC[C@@]2(O)CCC(=O)O | -4.98%
Cn1c(=O)c2[nH]c(Br)nc2n(C)c1=O | -4.53%
CCC(C)N(C)C(=O)c1cc2ccccc2c(-c2ccccc2Cl)n1 (centres unmarked) | 4.94%

Block 4
Target: Sal-like protein 4, full length isoform A (SALL4, Homo sapiens, UniProt Q9UJQ4, residues 1-1053)
UniProt Q9UJQ4, sequence (whole entry, looked up): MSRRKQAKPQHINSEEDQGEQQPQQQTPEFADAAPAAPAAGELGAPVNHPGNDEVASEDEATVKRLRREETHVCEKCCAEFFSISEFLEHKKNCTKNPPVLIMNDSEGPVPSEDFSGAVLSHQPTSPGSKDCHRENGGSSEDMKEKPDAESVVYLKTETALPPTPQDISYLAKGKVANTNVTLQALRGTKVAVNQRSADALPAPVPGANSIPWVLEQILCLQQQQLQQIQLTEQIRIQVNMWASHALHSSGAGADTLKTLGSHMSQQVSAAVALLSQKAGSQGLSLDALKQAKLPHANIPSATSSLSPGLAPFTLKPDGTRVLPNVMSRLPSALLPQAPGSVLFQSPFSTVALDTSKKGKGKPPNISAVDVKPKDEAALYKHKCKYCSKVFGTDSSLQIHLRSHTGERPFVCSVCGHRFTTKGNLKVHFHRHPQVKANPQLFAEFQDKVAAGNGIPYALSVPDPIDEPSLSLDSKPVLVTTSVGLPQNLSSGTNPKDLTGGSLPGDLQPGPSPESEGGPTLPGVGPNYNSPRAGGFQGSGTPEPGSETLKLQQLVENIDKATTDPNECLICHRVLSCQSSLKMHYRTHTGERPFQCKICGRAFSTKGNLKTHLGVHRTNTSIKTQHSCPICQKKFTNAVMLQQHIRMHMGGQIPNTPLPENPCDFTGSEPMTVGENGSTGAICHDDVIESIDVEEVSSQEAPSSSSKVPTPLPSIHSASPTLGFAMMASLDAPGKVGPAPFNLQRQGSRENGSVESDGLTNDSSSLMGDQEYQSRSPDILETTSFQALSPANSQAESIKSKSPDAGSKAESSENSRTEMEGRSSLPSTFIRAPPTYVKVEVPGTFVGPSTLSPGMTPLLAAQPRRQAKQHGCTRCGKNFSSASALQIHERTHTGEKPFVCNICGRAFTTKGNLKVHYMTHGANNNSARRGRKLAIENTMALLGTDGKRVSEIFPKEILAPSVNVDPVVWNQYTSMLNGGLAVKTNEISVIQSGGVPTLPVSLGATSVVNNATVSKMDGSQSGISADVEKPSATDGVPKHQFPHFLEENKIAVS
Technique: universal PBM
Molecule type: double-stranded DNA, one strand shown
Medium: in vitro
Tested at: 600 nM
Setting: 8-mer, flanks averaged, mean of replicates
Reading: higher = stronger binding
Strand | E-score
CGAAACTA | 0.104
AGGAGTTC | -0.0449
AAGCCCCC | -0.401
ACATTAGC | 0.031
GATTTCAC | 0.179
CGTCCACC | -0.284
AACATCGC | -0.191
TTCCGGAA | -0.188

Block 5
Target: RING finger protein unkempt homolog, zinc fingers 1-6, GST-SBP tag (UNK, Homo sapiens, UniProt Q9C0B0, residues 30-357)
Technique: RNA Bind-n-Seq
Molecule type: RNA
Medium: in vitro
Tested at: not given
Setting: RNA with constant flanks, human and mouse sites, ends assumed
Relative to: input RNA pool
Reading: higher = stronger binding
Shared flanks, not repeated: GGGAGUUCUACAGUCCGACGAUC … CAACAGAGGAUUGAGCAUCA
Residues (chain): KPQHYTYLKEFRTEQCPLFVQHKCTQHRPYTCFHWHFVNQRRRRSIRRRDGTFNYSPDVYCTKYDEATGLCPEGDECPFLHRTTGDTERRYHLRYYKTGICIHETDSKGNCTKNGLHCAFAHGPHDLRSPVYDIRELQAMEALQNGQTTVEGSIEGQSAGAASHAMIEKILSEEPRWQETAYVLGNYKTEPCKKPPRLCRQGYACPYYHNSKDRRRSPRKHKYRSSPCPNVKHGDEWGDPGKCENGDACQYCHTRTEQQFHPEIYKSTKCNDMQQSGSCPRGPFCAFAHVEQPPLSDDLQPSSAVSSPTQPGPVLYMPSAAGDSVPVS
Strand | bound/input enrichment [ratio]
UCAGCUUAGGCCUUCCAAGGAACAAUGAAAACUAUGUGCUGGCCAUUUGUUUAUCAGAUUCUUAGUAUAUACUCCUCCCUUCCCACCACCUUCCUGUCAAUUCCAGUACGAGACAGAAGG | 1.06
AACAGAAGAAAAGUAAUGGACUCUGAUGAAGAUGACGAUUAUUGAACUACAAGUGCUCACAGACUAGAACUUAACGGAACAAGUCUAGGACAGAAGUUAAGAUCUGAUUAUUUACUUUGU | 0.0624
AGGAAAUUAUCAGUAUUAGGCAAAGAUGGAAAGCCAGUUUCUGAAUAUAUUAUAAAAACAGAUGAGAAUGUUCGUAAAGAAAACAACAAAAAAGAGAGACGCUUGUCAGCUGAAAAAACU | 0.511
CUUCUCUAACUUUUUCAGUUCACAAUUUACUUGGUCCAGAUUUUCUAUUCUUUUUUUUUAACUAGUAAAUGAAAUUUACAUACUUCAUAAAAUUAUGAACAGAUAGCGCAUUGGGCUCUG | 1.12
UAAGAUGUAUUCUGUACAUAAUUUACAAAUAAAACAUUUUAUUUUAAUUGUUACUUAUUAUUUAGACAUUUCUCAACACUGAAAUUUGUAAAACAAAAACCAUGUAAGGUAUGUUUUUAG | 2.87
CACUUGAUGCCCCCAAGAAUCCUAGUAGAAUGUUUACUACCAAAUGGAAUGAUAGUGACUUUAGAAUGCCUCCGUGAGGCUACAUUAAUAACCAUAAAGCAUGAACUAUUUAAAGAAGCA | 0.953
ACACGUGUGUGUAUCACCAGUGGGUCAACUGCUUGUCAUUCCUCCCGUGGCAGUUUGUGUAGACAAUCUUACUGAGCAAAAGGCAAUGAAAAGUCUUGGUUCCCACACUGCGAUAUAUUG | 0.117
ACCAUUGGAUUUAAUGUAGAGACGGUGACGUACAAAAACCUUAAAUUCCAAGUCUGGGAUUUAGGAGGACAGACAAGUAUCAGGCCAUACUGGAGAUGUUACUAUUCAAACACAGAUGCA | 0.274

Block 6
Target: TAR DNA-binding protein 43, full length, His tag (TARDBP, Homo sapiens, UniProt Q13148, residues 1-414)
Technique: RNA Bind-n-Seq
Molecule type: RNA
Medium: in vitro
Tested at: 20 nM
Setting: 6-mer, flanks averaged, single round
Added: 150 mM LiCl
Relative to: input library
Reading: higher = stronger binding
Strand | 6-mer enrichment (R)
UUCCGG | 0.918
AGUCAA | 0.816
UUAUAA | 1.1
CUAGCC | 0.895
CGUUAG | 0.888
UUUCCC | 1.11
GAGGAU | 1.02
GCCUGA | 0.922
